Assay results gathered from unrelated publications.
Parts stem from different laboratories: compare values within a part only.

Series 1
Target: Interferon regulatory factor 7, full length, phosphomimetic (IRF7, Homo sapiens, UniProt Q92985, residues 1-503, S101K/S471D/S472D/S475D/S476D/S477D/S483D/S484D/S487D)
UniProt Q92985, sequence (whole entry, unmodified, looked up): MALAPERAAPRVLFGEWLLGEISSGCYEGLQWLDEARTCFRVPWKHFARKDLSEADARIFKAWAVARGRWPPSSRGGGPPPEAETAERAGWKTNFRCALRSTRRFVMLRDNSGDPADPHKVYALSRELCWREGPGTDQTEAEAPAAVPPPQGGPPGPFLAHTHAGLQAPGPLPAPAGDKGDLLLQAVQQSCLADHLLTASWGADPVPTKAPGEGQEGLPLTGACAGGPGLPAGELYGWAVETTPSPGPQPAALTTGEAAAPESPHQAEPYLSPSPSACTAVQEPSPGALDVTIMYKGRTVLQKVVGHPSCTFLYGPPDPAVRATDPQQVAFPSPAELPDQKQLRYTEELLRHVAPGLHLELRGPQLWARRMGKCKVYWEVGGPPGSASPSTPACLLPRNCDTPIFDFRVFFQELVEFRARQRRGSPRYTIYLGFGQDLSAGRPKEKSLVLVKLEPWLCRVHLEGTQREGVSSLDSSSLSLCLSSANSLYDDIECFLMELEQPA
Method: protein-binding microarray
Form: double-stranded DNA, one strand shown
Sample: in vitro
Concentration: 250 nM
Notes: 60-bp whole probe
Together with: salmon DNA 0.4 mg/ml
Baseline: random background probes
Direction: higher = stronger binding
Measurement: log fluorescence
Shared flanks, not repeated: GCCTAGCAC … GTCTTGATTCGCTTGACGCTGCTG
ATGCATGTAAATAATCAGACAGTGCTA: -0.357 z-score
CTAATATTGAGACTCATGGGGTGCTAG: 1.14 z-score
TCATTTTCATATATATAACTGTGCTAG: 1.67 z-score
GACGATCTCAATTTCGAGACGTGCTAG: 0.56 z-score
GACGGTATCGCTTTCGGGACGTGCTAG: 2.97 z-score
GACGATTCCTGTTTCGAGACGTGCTAG: 2.77 z-score
TCACTCGTGTTTTTCTCACTGTGCTAG: 0.694 z-score

Series 2
Target: Ras GTPase-activating protein-binding protein 1, C-terminal RGG region (G3BP1, Homo sapiens, UniProt Q13283)
UniProt Q13283, sequence (whole entry, looked up): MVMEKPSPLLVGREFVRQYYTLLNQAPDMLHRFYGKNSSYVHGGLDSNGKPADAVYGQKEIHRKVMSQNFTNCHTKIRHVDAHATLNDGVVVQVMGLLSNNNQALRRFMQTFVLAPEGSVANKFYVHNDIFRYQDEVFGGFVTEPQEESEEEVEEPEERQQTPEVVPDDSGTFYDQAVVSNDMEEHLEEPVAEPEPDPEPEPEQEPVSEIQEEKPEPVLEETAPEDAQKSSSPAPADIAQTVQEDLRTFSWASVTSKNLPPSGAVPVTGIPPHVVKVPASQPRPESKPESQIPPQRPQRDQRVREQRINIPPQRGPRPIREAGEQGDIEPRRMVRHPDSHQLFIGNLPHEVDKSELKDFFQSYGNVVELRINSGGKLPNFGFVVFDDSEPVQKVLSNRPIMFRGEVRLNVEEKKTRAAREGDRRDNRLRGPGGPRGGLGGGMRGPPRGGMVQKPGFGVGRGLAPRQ
Method: RNA Bind-n-Seq
Form: RNA
Sample: in vitro
Concentration: 1 µM
Notes: whole 134-nt RNA, ends assumed
Together with: 150 mM KCl
Baseline: input library
Direction: higher = stronger binding
Measurement: log2 enrichment
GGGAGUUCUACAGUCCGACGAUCAAGUCCUGUGCUACACAUCGUAUGUACCGAAUCGGGGUGGGGAAAAAGGGGAGGGGAAAGUAUUAUGUUACGCCGUUCGGAUCUGCACUUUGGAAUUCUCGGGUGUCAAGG: 2.45
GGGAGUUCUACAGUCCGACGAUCCCUGUGCUACACAUCGUAUGUACCGAAUCGGGGAAAAAAGGAAAAAAGGGAAAAAAGGGGAAAGUAUUAUGUUACGCCGUUCGGAUCUGCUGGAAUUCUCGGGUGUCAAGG: -1.67
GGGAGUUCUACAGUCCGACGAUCUCCUCAAGUCCUGUGCUACACAUCGUAUGUACCGAAUCGGGCGGCGGCGGGGAAAGUAUUAUGUUACGCCGUUCGGAUCUGCACUUCCAGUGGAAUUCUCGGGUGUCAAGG: -0.469
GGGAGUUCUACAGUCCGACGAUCCCUCAAGUCCUGUGCUACACAUCGUAUGUACCGAAUCGGUUUGGUUUGGAGGAAAGUAUUAUGUUACGCCGUUCGGAUCUGCACUUCCAGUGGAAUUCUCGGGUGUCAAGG: -0.717
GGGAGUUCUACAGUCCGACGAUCCACAGACAACACGCACCCACACAGACACAGAGGGAAGGGGUUGGGAUGGGGACAGGGUGCACAGCAGGGCGGGGUAGGACCCCAAAACCUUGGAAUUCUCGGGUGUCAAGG: -0.395
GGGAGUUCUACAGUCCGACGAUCCUCAAGUCCUGUGCUACACAUCGUAUGUACCGAAUCGGAAAGGAAAGGUUUGGAAAGUAUUAUGUUACGCCGUUCGGAUCUGCACUUCCAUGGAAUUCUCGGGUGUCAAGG: -1.28

Series 3
Target: Histone acetyltransferase KAT6A, winged helix 1, GST fusion (KAT6A, Homo sapiens, UniProt Q92794, residues 1-85)
Method: protein binding microarray
Form: double-stranded DNA, one strand shown
Sample: in vitro
Concentration: not given
Notes: 8-mer, flanks averaged, mean of 2 arrays, mostly near background
Baseline: not given
Direction: higher = stronger binding
Measurement: E-score
Construct (chain): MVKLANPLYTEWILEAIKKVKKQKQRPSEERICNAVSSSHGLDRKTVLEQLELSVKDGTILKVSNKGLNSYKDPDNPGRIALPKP
CCCTAGGC: -0.111
GCGTCAGC: 0.292
CGTGCCCC: 0.12
CGTAACTA: 0.165
GAAATTGA: -0.0191
ATTAAGCA: -0.169

Further values, each from its own experiment
PhoQ, residues 284 288 289 292 302 303 NLSRDF  fold induction (PhoP, residues 12 14 15 18 19 LHHVQ (Escherichia coli, UniProt P23836); Sort-seq, measured: YFP reporter; E. coli; PhoQ-PhoP variant library, together with: 10 µM Mg2+; baseline: high Mg2+ state, higher = stronger signaling): 2.18
